# Measured values collected from several papers.
# Every numbered part comes from another study and shows a few of its results, in no order. Substitutions count along the parent as printed.

# Set 1
# Target: CREB3L3, bZIP domain (human)
# Method: DHFR protein complementation
# Matrix: yeast
# Notes: single substitutions, most at no-binding floor
# Baseline: wild-type JUN-FOS pair
# Direction: higher = stronger binding
# Starting sequence: JUN, bZIP domain (human); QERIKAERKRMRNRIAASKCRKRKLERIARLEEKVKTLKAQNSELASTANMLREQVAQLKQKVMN; partner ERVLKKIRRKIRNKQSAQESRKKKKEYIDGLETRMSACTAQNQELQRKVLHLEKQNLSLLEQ
Substitution,binding fitness [natural log]
E33F,-1.58
R53V,-1.44
V56W,-1.34
E32T,-1.47
E44L,-1.4
K36V,-1.42
L52K,-1.44
L38E,-1.48

# Set 2
# Target: TAR DNA-binding protein 43, full length, His tag (TARDBP, Homo sapiens, UniProt Q13148, residues 1-414)
# Method: RNA Bind-n-Seq
# Form: RNA
# Matrix: in vitro
# Concentration: 20 nM
# Notes: 6-mer, flanks averaged, single round
# Together with: 150 mM KCl
# Baseline: input library
# Direction: higher = stronger binding
Oligonucleotide,6-mer enrichment (R)
AUUAAU,0.616
ACAUGC,0.674
CGUUCU,0.55
CCUACA,0.598
AGCACG,0.964
AGCAUG,0.973
AUCGAC,0.604
CUUUCA,0.55

# Set 3
# Target: CCNB2, cyclin fold, Cln2 fusion (human)
# Method: yeast growth competition, sequencing
# Matrix: yeast
# Notes: weak parent motif
# Baseline: not given
# Direction: higher = stronger binding
# Starting sequence: viral docking peptide; CKVKRKLFGSENI; partner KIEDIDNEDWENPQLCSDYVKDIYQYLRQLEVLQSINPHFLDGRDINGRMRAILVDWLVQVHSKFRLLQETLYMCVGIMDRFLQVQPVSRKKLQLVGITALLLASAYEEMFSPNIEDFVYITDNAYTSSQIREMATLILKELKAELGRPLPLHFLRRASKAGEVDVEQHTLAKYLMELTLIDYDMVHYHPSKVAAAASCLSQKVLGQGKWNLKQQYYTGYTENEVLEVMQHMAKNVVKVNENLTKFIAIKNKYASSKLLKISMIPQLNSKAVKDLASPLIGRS
Substitution,normalised enrichment score
F8L,0.067
F8A,0.464
I13A,0.497
L7A,0.604
G9A,0.529
N12A,0.661
R5A L7A,0.455
K2A,0.621
R5K F8L,0.382

# Set 4
# Target: Ras GTPase-activating protein-binding protein 1, RRM domain (G3BP1, Homo sapiens, UniProt Q13283)
# Sequence of UniProt Q13283 (whole entry, looked up): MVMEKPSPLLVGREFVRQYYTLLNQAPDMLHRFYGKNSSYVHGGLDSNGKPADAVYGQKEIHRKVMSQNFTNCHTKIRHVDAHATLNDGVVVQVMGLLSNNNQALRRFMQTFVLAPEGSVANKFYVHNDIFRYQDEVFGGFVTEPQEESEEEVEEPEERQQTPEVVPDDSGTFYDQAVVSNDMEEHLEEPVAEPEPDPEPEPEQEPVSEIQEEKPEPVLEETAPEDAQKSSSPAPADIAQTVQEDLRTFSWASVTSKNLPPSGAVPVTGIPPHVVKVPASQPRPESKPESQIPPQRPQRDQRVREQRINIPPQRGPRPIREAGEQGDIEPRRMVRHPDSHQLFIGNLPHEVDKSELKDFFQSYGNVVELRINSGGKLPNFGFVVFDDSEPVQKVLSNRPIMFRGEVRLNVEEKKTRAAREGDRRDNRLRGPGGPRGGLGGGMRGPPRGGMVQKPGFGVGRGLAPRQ
# Method: RNA Bind-n-Seq
# Form: RNA
# Matrix: in vitro
# Concentration: 1 µM
# Notes: whole 134-nt RNA, ends assumed
# Together with: 150 mM KCl
# Baseline: input library
# Direction: higher = stronger binding
# Constant ends, left off below: GGGAGUUCUACAGUCCGACGAUC … UGGAAUUCUCGGGUGUCAAGG
Oligonucleotide,log2 enrichment
GUCCUGUGCUACACAUCGUAUGUACCGAAUCGGGUUUUUGGGUUUUUGGGUUUUUGGGGAAAGUAUUAUGUUACGCCGUUCGGAUCUGCA,0.428
CACAGACAACACGCACCCACACAGACACAGAGGGAAGGGGUUGGGAUGGGGACAGGGUGCACAGCAGGGCGGGAAAGGACCCCAGCCCCU,-0.178
AAGUCCUGUGCUACACAUCGUAUGUACCGAAUCGGAAAAAAAGGAAAAAAAGGAGGAAAGUAUUAUGUUACGCCGUUCGGAUCUGCACUU,-0.105
CCUCAAGUCCUGUGCUACACAUCGUAUGUACCGAAUCGGUGGAGGUUUUUGGAAAGUAUUAUGUUACGCCGUUCGGAUCUGCACUUCCAG,-0.19
AAGUCCUGUGCUACACAUCGUAUGUACCGAAUCGGGAAAAAAAGGGUUUGGGAGGGAAAGUAUUAUGUUACGCCGUUCGGAUCUGCACUU,0.654
CUGUGCUACACAUCGUAUGUACCGAAUCGGGCCCCCCCGGCCCCCCCGGGGCCCCCCCGGGAAAGUAUUAUGUUACGCCGUUCGGAUCUG,-0.677
GUCCUGUGCUACACAUCGUAUGUACCGAAUCGGUUUUUUGGUUUUUUGGGGUUUUUUGGAAAGUAUUAUGUUACGCCGUUCGGAUCUGCA,-0.274
UGUUGAUGCUGUAAUUGCUGAACUUAAAAAGCAGUCUAAACCUGUGACCACCCCUGAAGAAAUUGCACAGGUAAGGACUUAACAUGUUAC,0.221

# Some of these lines once more (set 2):
Oligonucleotide,6-mer enrichment (R)
AUUAAU,0.616
ACAUGC,0.674
CGUUCU,0.55
